Measurements collected from several papers.
Each line is one published result; not all experiments were run side by side.
Technique: steady-state kinetics
B1: UCK2 H117Y (Homo sapiens, UniProt Q9BZX2); chain MAGDSEQTLQNHQQPNGGEPFLIGVSGGTASGKSSVCAKIVQLLGQNEVDYRQKQVVILSQDSFYRVLTSEQKAKALKGQFNFDHPDAFDNELILKTLKEITEGKTVQIPVYDFVSYSRKEETVTVYPADVVLFEGILAFYSQEVRDLFQMKLFVDTDADTRLSRRVLRDISERGRDLEQILSQYITFVKPAFEEFCLPTKKYADVIIPRGADNLVAINLIVQHIQDILNGGPSKRQTNGCLNGYTPSRKRQASESSSRPH
B2: ADA (Homo sapiens, UniProt P00813); chain MAQTPAFDKPKVELHVHLDGSIKPETILYYGRRRGIALPANTAEGLLNVIGMDKPLTLPDFLAKFDYYMPAIAGCREAIKRIAYEFVEMKAKEGVVYVEVRYSPHLLANSKVEPIPWNQAEGDLTPDEVVALVGQGLQEGERDFGVKARSILCCMRHQPNWSPKVVELCKKYQQQTVVAIDLAGDETIPGSSLLPGHVQAYQEAVKSGIHRTVHAGEVGSAEVVKEAVDILKTERLGHGYHTLEDQALYNRLRQENMHFEICPWSSYLTGAWKPDTEHAVIRLKNDQANYSLNTDDPLIFKSTLDTDYQMTKRDMGFTEEEFKRLNINAAKSSFLPEDEKRELLDLLYKAYGMPPSASAGQNL
B3: protein (Allochromatium vinosum, UniProt P45370); chain MFPIDIRPDKLTQEMLDYSRKLGQGMENLLNAEAIDTGVSPKQAVYSEDKLVLYRYDRPEGAPEAQPVPLLIVYALVNRPYMTDIQEDRSTIKGLLATGQDVYLIDWGYPDQADRALTLDDYINGYIDRCVDYLREAHGVDKVNLLGICQGGAFSLMYSALHPDKVRNLVTMVTPVDFKTPDNLLSAWVQNVDIDLAVDTMGNIPGELLNWTFLSLKPFSLTGQKYVNMVDLLDDPDKVKNFLRMEKWIFDSPDQAGETFRQFIKDFYQNNGFLNGGVVLGGQEVDLKDITCPVLNIFALQDHLVPPDASRALKGLTSSPDYTELAFPGGHIGIYVSGKAQKEVTPAIGKWLNER
B4: protein (Scutellaria baicalensis, UniProt A0A146AUJ9); chain MEVTLNVALLLLSAAVCLMVFTGKRRRRLPNPPGPFPLPLIGNLNLVSPRLHHTFHMLAQRYGPIMKFRLGSIPCLVVSTPELAKDILKTHELIFSSRVKSTAIDIVTYGVSFAFSPYGPYWKYIKKLCTYELLGSRMLNHFEPLRALEVREFLKDVMAMGKAGKSFNVTEELMKLTSNVMSNMMLSIRAAESEEQAEVARTLIREVSQLFGEFDFGDMLWFCKSFDFQGIKKRSKDIKVRYDALLEKILTDRENVRRQNGVVEPKDMLDMFLDIMEGGKTDVEFTREHLKAVILDFLTAGTDTTAITVEWVLAELMNSPKAMKKAQDEMDRVVGRERMMAESDAPNLPYFLAIIKETFRLHPPIPLIIRRSIEDCVIDGYHIPADTLAFINVWSMGRNEKYWDSPLSFRPERFLEGDNAAIDIKGMHFELLPFGSGRRGCPGMLSAIQEVLIIAGTVIQCFDWEQADGSGRVDMSERPGLTTPREIDLVCRVVPRVDERVISGH
B5: protein F222A (Planktothrix agardhii, UniProt F5B6Z0); chain MIVNVIQKDRLKEQKLQFIRNHQQAFDVEPIYPLPLFEDFVTSIEGDCSLEASCKIESDKLIASRFLLFFEDKTQEWQKYLHQSLTFFGLVENRVGVKINYSLLQQFLGSSFDFSKVTVLSAGIDLRNNLAESSLKMHIRIKDYPEKLDKAFALSDGAADGNYLKDFVNLIGFDFYFNGKSEIEIYAEVQEDDFFKPEINNLVWQHFPKTALQPLKASSLFATGLSKANNNPVLYYHLKNRQDLTNYFKLNDTAQRVHSFYQHQDILPYMWVGTAQKELEKTRIENIRLYYYKSFKMESN
B6: enzyme (Thermobifida fusca, UniProt Q47RA9); chain MIMIMASKSSPHDLPDVSGLSIAVLGGTGDQGRGLARRFAMAGHEVILGSRSAERAQAVAAELGEGLPVRGMDNAGAAEAGDVVIVAVPWDGHRALLESLKDVLAGKIVVDCVNPLGFDKRGAYALPVEEGSAAEQAAAILPDSRVVAAFHHVSAVLLLDPEVEKVDLDVLVLGDDREATDVVRALAARIPGVRGVYGGRLRNAHQVEAFTANLISINRRYKAHAGIRITDI

`protein (Danio rerio, UniProt A0ACM8QCA3)` gave a Km of 9.47 µM (C[C@H](CCCC(CO)CO)[C@H]1CC[C@H]2[C@@H]3[C@H](O)C[C@H]4C[C@H](O)CC[C@]4(C)[C@H]3C[C@H](O)[C@]12C; pH 7, 28 °C, substrate inhibition, with: PAPS 14 µM).
For `sacB (Priestia megaterium, UniProt D5DC07)`, the Km was 10800 µM (OC[C@H]1O[C@@](CO)(O[C@H]2O[C@H](CO)[C@@H](O)[C@H](O)[C@H]2O)[C@@H](O)[C@@H]1O; pH 6.6).
With `B1 (UCK2 H117Y)` the Km was 138 µM (Nc1ccn([C@@H]2O[C@H](CO)[C@@H](O)[C@H]2O)c(=O)n1; pH 7.2, 25 °C, KCl 100 mM, with: ATP 100–200 µM).
For `DAD V1M (Burkholderia sp.)`, the Km was 0.63 µM (O=C(CO)c1ccc(O)cc1; pH 6, 20 °C, with: O2).
The Km of `B2 (ADA)` is reported as 51.3 µM (Nc1ncnc2c1ncn2[C@H]1C[C@H](O)[C@@H](CO)O1; HEK293, cell homogenate; pH 5.8, 37 °C, not purified).
`B3 (protein)` gave a Km of 50 µM (C=CC[C@@H](O)CC(=O)SCCNC(=O)CCNC(=O)[C@H](O)C(C)(C)COP(=O)(O)OP(=O)(O)OC[C@H]1O[C@@H](n2cnc3c(N)ncnc32)[C@H](O)[C@@H]1OP(=O)(O)O; pH 7.8, 30 °C).
With `nahG (Pseudomonas putida, UniProt P23262)` the Km was 0.53 µM (Cc1cc2nc3c(=O)[nH]c(=O)nc-3n(C[C@H](O)[C@H](O)[C@H](O)COP(=O)(O)OP(=O)(O)OC[C@H]3O[C@@H](n4cnc5c(N)ncnc54)[C@H](O)[C@@H]3O)c2cc1C; pH 8.5, 25 °C, apparent, cofactor varied, with: NADH 200 µM, salicylate 150 µM).
The Km of `B4 (protein)` is reported as 0.46 µM (O=C1C[C@@H](c2ccccc2)Oc2cc(O)cc(O)c21; pH 7.9, 28 °C, apparent, not purified, with: NADPH).
`B5 (protein F222A)` has a Km of 190 µM (CC(C)=CCC/C(C)=C/COP(=O)(O)OP(=O)(O)O; with: tri-Tyr peptide acceptor).
The Km of `FMO2 (Homo sapiens, UniProt Q99518)` is reported as 4500 µM (CN1CCC[C@H]1c1cccnc1; HEK293 microsomes; 37 °C, not purified, with: NADPH regenerating system).
`PRP43 (Saccharomyces cerevisiae, UniProt P53131)` gave a Km of 120 µM (O=c1ccn([C@@H]2O[C@H](COP(=O)(O)OP(=O)(O)OP(=O)(O)O)[C@@H](O)[C@H]2O)c(=O)[nH]1; pH 8).
For `B6 (enzyme)`, the Km was 20000 µM (NC(=O)c1ccc[n+](CCO)c1; pH 8, 25 °C).

Repeated from above:
`B3 (protein)` gave a Km of 50 µM (C=CC[C@@H](O)CC(=O)SCCNC(=O)CCNC(=O)[C@H](O)C(C)(C)COP(=O)(O)OP(=O)(O)OC[C@H]1O[C@@H](n2cnc3c(N)ncnc32)[C@H](O)[C@@H]1OP(=O)(O)O; pH 7.8, 30 °C).
